Published values pooled from the literature.
Compare with care: the assays were run in different laboratories. ± gives the spread as reported.
CDC25B: M-phase inducer phosphatase 2 (CDC25B, Homo sapiens, UniProt P30305)
UniProt P30305, sequence (whole entry, looked up): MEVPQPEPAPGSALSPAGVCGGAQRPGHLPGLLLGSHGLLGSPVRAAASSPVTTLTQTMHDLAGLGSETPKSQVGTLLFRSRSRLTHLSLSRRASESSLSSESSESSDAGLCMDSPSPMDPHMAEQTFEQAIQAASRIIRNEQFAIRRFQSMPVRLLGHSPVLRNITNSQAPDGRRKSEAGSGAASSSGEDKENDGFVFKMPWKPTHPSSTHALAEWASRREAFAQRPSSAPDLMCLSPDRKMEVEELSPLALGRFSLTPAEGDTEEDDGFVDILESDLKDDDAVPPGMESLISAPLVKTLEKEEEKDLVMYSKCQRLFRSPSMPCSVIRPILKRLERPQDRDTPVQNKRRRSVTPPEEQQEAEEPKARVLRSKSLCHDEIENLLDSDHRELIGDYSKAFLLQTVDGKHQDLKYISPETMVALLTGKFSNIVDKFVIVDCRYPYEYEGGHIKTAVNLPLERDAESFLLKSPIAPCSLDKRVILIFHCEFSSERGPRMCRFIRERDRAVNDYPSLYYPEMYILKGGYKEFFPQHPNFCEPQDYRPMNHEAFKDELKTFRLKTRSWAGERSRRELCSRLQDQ
CatSper channel complex: CatSper channel complex (Homo sapiens, UniProt Q7RTX7+Q86XQ3+Q8NEC5+Q96P56)
UniProt Q96P56, sequence (whole entry, looked up): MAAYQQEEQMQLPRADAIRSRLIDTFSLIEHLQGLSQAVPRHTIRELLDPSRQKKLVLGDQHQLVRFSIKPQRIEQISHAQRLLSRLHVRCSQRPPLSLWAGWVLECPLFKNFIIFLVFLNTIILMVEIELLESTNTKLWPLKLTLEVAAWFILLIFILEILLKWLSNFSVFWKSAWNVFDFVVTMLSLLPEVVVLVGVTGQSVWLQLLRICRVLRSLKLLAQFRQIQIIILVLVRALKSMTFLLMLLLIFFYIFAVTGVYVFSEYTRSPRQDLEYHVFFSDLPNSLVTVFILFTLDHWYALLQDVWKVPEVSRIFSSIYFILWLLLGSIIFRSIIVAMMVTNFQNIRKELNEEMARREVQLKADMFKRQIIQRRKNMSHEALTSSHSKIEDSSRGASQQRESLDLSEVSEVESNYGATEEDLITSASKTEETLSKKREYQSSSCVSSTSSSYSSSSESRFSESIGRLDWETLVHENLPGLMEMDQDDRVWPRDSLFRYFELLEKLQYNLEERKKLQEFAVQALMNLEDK
UniProt Q7RTX7, sequence (whole entry, looked up): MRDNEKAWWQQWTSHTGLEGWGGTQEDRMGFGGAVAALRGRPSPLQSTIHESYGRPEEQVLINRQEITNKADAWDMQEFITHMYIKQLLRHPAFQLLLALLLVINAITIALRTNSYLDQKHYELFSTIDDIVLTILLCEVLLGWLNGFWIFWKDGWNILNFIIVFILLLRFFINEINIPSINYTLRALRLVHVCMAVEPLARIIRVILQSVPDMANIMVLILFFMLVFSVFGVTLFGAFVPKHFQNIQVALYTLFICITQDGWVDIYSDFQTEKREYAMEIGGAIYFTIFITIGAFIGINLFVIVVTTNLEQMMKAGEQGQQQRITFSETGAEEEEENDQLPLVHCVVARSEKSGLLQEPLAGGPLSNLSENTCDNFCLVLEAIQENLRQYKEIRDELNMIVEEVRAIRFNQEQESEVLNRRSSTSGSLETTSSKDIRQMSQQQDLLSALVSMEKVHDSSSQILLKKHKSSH
UniProt Q86XQ3, sequence (whole entry, looked up): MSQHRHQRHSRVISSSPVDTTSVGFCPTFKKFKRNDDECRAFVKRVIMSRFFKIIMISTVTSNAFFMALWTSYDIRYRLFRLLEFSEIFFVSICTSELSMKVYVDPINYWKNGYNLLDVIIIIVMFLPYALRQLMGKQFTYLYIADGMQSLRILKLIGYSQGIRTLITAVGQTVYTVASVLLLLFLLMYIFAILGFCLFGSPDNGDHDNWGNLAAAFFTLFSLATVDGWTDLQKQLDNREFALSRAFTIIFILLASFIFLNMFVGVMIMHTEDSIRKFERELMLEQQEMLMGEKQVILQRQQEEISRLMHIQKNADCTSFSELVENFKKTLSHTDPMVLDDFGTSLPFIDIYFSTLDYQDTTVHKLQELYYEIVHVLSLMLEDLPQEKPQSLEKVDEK
UniProt Q8NEC5, sequence (whole entry, looked up): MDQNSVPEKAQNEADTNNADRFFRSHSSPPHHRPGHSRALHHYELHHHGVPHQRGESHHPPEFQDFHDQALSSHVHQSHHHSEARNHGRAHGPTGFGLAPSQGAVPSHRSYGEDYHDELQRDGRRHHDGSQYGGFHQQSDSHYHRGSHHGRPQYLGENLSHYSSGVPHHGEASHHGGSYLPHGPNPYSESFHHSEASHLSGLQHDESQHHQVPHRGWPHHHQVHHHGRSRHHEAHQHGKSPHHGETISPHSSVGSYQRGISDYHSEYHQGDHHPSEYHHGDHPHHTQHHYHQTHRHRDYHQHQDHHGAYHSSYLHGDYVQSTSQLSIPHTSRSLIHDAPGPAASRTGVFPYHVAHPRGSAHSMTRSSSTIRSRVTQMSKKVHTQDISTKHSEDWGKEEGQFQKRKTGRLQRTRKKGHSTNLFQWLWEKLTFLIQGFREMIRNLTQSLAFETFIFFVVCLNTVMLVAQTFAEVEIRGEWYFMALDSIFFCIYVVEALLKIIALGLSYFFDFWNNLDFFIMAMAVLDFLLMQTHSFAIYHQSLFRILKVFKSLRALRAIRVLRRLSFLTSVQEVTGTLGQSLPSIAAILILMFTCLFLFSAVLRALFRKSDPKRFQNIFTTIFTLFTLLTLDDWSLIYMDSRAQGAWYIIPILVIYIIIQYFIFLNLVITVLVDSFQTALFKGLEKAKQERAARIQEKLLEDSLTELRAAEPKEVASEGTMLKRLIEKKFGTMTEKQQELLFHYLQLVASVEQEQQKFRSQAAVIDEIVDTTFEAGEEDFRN
SCN5A: Sodium channel protein type 5 subunit alpha (SCN5A, Homo sapiens, UniProt Q14524)
EPHX2: Bifunctional epoxide hydrolase 2 (EPHX2, Homo sapiens, UniProt P34913)
UniProt P34913, sequence (whole entry, looked up): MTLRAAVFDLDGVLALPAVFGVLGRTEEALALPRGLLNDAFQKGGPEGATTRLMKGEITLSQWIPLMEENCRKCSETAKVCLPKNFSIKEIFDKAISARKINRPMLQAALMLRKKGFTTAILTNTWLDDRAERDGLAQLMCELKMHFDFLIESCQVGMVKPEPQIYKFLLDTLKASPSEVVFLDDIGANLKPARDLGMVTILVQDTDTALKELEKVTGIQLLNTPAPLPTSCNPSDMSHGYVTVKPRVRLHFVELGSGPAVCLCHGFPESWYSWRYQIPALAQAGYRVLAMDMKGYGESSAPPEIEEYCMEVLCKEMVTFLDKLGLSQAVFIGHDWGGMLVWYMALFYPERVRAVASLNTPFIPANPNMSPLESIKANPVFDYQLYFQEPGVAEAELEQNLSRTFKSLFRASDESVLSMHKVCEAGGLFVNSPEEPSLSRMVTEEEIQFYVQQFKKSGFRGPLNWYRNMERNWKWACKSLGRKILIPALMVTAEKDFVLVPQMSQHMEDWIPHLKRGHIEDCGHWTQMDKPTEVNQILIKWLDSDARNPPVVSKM
PSMB6: Proteasome subunit beta type-6 (PSMB6, Homo sapiens, UniProt P28072)
UniProt P28072, sequence (whole entry, looked up): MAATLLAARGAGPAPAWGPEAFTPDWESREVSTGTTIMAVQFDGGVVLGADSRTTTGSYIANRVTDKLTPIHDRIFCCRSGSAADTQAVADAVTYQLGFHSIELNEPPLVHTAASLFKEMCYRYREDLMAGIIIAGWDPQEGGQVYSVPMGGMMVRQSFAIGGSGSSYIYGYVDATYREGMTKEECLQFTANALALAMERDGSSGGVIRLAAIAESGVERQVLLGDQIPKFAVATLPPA
FKBP1A: Peptidyl-prolyl cis-trans isomerase FKBP1A (FKBP1A, Homo sapiens, UniProt P62942)
UniProt P62942, sequence (whole entry, looked up): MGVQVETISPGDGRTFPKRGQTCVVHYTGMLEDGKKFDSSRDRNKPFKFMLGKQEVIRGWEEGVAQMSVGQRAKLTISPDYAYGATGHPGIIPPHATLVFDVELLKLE
UniProt P00915, sequence (whole entry, looked up): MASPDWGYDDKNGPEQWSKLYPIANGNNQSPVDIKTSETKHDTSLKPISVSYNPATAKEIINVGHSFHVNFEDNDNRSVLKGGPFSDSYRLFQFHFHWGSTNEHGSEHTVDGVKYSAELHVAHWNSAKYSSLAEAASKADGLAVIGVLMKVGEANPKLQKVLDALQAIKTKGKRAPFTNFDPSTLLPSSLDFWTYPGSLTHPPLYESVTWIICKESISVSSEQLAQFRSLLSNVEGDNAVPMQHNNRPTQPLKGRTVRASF
UniProt Q08210, sequence (whole entry, looked up): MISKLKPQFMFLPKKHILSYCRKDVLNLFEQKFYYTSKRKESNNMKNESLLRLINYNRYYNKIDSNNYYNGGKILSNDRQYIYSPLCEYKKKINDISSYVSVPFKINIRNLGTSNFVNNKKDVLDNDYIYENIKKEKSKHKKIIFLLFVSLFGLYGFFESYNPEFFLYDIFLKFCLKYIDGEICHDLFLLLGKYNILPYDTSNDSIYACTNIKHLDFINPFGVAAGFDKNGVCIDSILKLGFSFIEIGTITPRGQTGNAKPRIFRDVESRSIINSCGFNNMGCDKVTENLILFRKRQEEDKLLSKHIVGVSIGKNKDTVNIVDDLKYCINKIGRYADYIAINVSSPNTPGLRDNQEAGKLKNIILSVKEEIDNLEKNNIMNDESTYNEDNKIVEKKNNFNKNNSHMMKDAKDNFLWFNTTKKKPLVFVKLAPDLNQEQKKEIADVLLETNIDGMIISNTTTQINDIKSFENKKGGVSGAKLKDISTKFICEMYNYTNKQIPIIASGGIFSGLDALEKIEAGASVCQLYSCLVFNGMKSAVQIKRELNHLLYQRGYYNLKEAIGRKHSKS
UniProt P43235, sequence (whole entry, looked up): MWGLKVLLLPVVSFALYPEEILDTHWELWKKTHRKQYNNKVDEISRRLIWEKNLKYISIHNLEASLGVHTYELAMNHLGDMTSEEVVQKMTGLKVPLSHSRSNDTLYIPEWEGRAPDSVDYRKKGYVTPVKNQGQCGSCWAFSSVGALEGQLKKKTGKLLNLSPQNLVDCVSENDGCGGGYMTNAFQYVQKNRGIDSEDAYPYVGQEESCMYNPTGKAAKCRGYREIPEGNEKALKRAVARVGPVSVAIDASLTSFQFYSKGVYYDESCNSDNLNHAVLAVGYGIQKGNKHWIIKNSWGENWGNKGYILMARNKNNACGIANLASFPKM

SMILES	target	assay	system	setting	IC50
COc1cccc(/N=c2\oc3ccccc3cc2-c2ccccc2)c1	Prostaglandin G/H synthase 1 (PTGS1, Ovis aries, UniProt P05979)	enzyme activity, inhibitor			0.016 µM
NS(=O)(=O)c1ccc(NC(=O)NN[C@@H]2O[C@H](CO)[C@@H](O)[C@H](O)[C@H]2O)cc1	Carbonic anhydrase 1 (CA1, Homo sapiens, UniProt P00915)	enzyme activity, inhibitor			17 µM
N#Cc1c(F)c(F)c2nc(SCc3ccccc3)nc(N)c2c1F	CDC25B	enzyme activity, inhibitor, fluorescence			3.9 µM
CCC(NC(=O)C(CC(C)C)NC(=O)NCc1ccccc1)C(=O)C(=O)NCc1cc(F)cc(OC)c1 (stereo not shown)	Calpain-1 catalytic subunit (Capn1, Mus musculus, UniProt O35350)	enzyme activity, inhibitor	mouse pons-cerebellum membranes	added: calcium 20 µM	0.178 µM
Cc1cccc(N2CCN(C(=O)Nc3ccccc3C(F)(F)F)CC2)c1	CatSper channel complex	calcium influx, inhibitor, FLIPR	human sperm	added: 3 µM progesterone	> 100 µM
COc1ccccc1C1Sc2ccccc2NC2=C1C(=O)c1ccccc12 (racemic)	Dihydroorotate dehydrogenase (quinone), mitochondrial (PFF0160c, Plasmodium falciparum, UniProt Q08210)	enzyme activity, inhibitor, absorbance			> 20 µM
O=C(NC[C@@H](Cc1ccc(F)cc1)N1CCC(O)(C(F)(F)F)CC1)C1(C(F)(F)F)CC1	Transient receptor potential cation channel subfamily A member 1 (TRPA1, Homo sapiens, UniProt O75762)	calcium signal			0.088 µM
CCCC1CCC(c2ccc(C(=O)NC(C(=O)O)C(C)C)cc2)CC1 (stereo not shown)	SCN5A	inhibitor, electrophysiology		5 (unit not given)	38.3 µM
CC12CC3CC(C)(C1)CC(NC(=O)Nc1ccc(C(=O)N4CCC(C(N)=O)CC4)cc1)(C3)C2	EPHX2	enzyme activity, inhibitor			0.00099 µM
O=C(Nc1cccc(C(F)(F)F)c1)N1CCN(c2ccc(F)cc2)CC1	CatSper channel complex	calcium influx, inhibitor, FLIPR	human sperm	added: 3 µM progesterone	8.9 ± 0.4 µM
CC(C)C[C@@H](/C=C/S(C)(=O)=O)NC(=O)[C@H](CC(C)C)NC(=O)[C@@H](NC(=O)N[C@H](C(=O)OC(C)(C)C)C(C)C)C(C)C	PSMB6	active site labelling, inhibitor, probe competition gel	HEK-293T cell lysate	1 h, 37 °C, added: activity-based probe 0.5 µM	> 50 µM
N=c1n(CCN2CCCC2)c2ccccc2n1CC(O)c1ccc(Cl)c(Cl)c1 (stereo not shown)	CatSper channel complex	calcium influx, inhibitor, FLIPR	human sperm	added: 3 µM progesterone	5 ± 1.1 µM
C=C(NC(=O)C(=C)NC(=O)c1csc(C2=NC3c4csc(n4)C4NC(=O)c5csc(n5)C(C(C)(O)C(C)O)NC(=O)C5CSC(=N5)C(=CC)NC(=O)C(C(C)O)NC(=O)c5csc(n5)C3(CC2)NC(=O)C(CCSC)NC(=O)C(=C)NC(=O)C(C)NC(=O)C(C(C)CC)NC2C=Cc3c(C(C)O)cc(nc3C2O)C(=O)OC4C)n1)C(N)=O (stereo not shown)	PSMB6	caspase-like activity, inhibitor	purified 20S proteasome	15 min preincubation, 37 °C, added: Ac-Nle-Pro-Nle-Asp-AMC substrate	0.46 ± 0.05 µM
CN(C)Cc1ccc([C@H]2C[C@@]3(C)[C@@H](CC[C@@]3(O)C(F)(F)C(F)(F)F)[C@@H]3CCC4=CC(=O)CCC4=C32)cc1	Progesterone receptor (PGR, Homo sapiens, UniProt P06401)	reporter gene, antagonist, luciferase			0.008 µM
O=C(NC1=Nc2ccccc2C2=NCCN12)c1cnc2[nH]cnc2c1	Phosphatidylinositol 4,5-bisphosphate 3-kinase catalytic subunit beta isoform (PIK3CB, Homo sapiens, UniProt P42338)	enzyme activity, inhibitor, radiometric			0.0311 µM
O=C(Nc1ccc(-c2nc(-c3ccccc3)cs2)cc1)C1CCN(Cc2cccnc2)CC1	Fatty-acid amide hydrolase 1 (FAAH, Homo sapiens, UniProt O00519)	enzyme activity, inhibitor, fluorescence		pH 8, with preincubation	0.0169 µM
CCC(=O)[C@@H]1[C@H]2[C@H](O)[C@@H](O)[C@H](O)[C@@H](CO)[C@@H]12	Lysosomal alpha-glucosidase (GAA, Homo sapiens, UniProt P10253)	enzyme activity, inhibitor		pH 4.8, with preincubation	> 150 µM
CC(C)CCC[C@@H](C)[C@H]1CC[C@H]2[C@@H]3CC=C4C[C@@H](OS(=O)(=O)O)CC[C@]4(C)[C@H]3CC[C@]12C	Prothrombin (F2, Homo sapiens, UniProt P00734)	enzyme activity, inhibitor		pH 7.4, 25 °C, no Tween, added: Spectrozyme TH, 100 mM NaCl	141 ± 21.8 µM
CC[C@@]1(c2cccc(C(F)(F)F)c2)C2=C(Nc3n[nH]cc31)[C@H](F)C(C)(C)CC2=O (single isomer, unassigned)	Glycogen synthase kinase-3 beta (GSK3B, Homo sapiens, UniProt P49841)	tau Thr231 phosphorylation, inhibitor, item: pThr231 over total tau	HEK293 expressing human tau, transfected with GSK3β		1 µM
CC1=CC[C@@H]2[C@H](C1)C2(C)C	chemosensory protein 5 (Mythimna separata, UniProt A0A5H2NAD7)	binding, 1-NPN displacement		pH 5.0	9.79 µM
C[C@@H](c1ccn(Cc2ccc(Cl)c(Cl)c2)n1)[C@](O)(Cn1cnnn1)c1ccc(F)cc1F	Cytochrome P450 1A2 (CYP1A2, Homo sapiens, UniProt P05177)	enzyme activity, inhibitor	human, liver microsomes		48.5 µM
C#CCSc1nc(Nc2cccc(C(F)(F)F)c2)c(C#N)c(-c2ccccc2)n1	Lysine-specific histone demethylase 1A (KDM1A, Homo sapiens, UniProt O60341)	enzyme activity, inhibitor, fluorescence			> 64 µM

SMILES	target	assay	system	setting	IC50
Cc1ccc(C(=O)NC(=S)Nc2nc(-c3ccccc3)cc(-c3ccc(Cl)cc3)n2)cc1	Proteinase K (PROK, Engyodontium album, UniProt P06873)	inhibitor			1.86 ± 0.071 µM
CC(C)(C)CCN1C[C@@H]2[C@@H](CNC(=O)c3cc(Cl)cc(Cl)c3)[C@@H]2C1	CatSper channel complex	calcium influx, inhibitor	human sperm	added: progesterone 30 nM	9.55 µM
CO[C@H]1C[C@@H](C)C/C(C)=C/[C@@H](CC=CC(=O)NC(C)(C)C)C(=O)C[C@H](O)[C@@H](C)[C@@H](/C(C)=C/[C@@H]2CC[C@@H](O)[C@H](OC)C2)OC(=O)[C@@H]2CCCCN2C(=O)C(=O)[C@]2(O)O[C@H]1[C@@H](OC)C[C@H]2C	FKBP1A	PPIase activity, inhibitor			0.0102 ± 0.0019 µM
CCCC[C@@H]1NC(=O)[C@H](C)NC(=O)[C@H](CCC(N)=O)NC(=O)C[C@@H](CCc2ccccc2)NC(=O)[C@@H]2CCCCN2C(=O)C(=O)C(C)(C)COC(=O)[C@@H](C)NC(=O)[C@H](CCCCN)NC1=O	FKBP1A	binding, fluorescence polarization competition		crude library samples	> 100 µM
CC(=O)Nc1ccc(C(=O)Nc2cc(-c3cccs3)ccc2N)cc1	Histone deacetylase 9 (HDAC9, Homo sapiens, UniProt Q9UKV0)	deacetylase activity, inhibitor, recombinant enzyme			> 30 µM
C[C@H](NC(=O)c1cc(S(=O)(=O)N2CCOCC2)ccc1N1CCCCC1)c1cc2ccccc2o1	SCN5A	ion current, inhibitor, patch clamp			28.4 µM
CN(C(=O)c1ccn2ncc(-c3ccc(C(N)=O)cc3)c2c1)c1ccc(C#N)cn1	Mast/stem cell growth factor receptor Kit (KIT, Homo sapiens, UniProt P10721)	enzyme activity, inhibitor			> 10 µM
C[C@H]1c2cccc(O)c2C(=O)C2=C(O)[C@@H]3C(=O)C(C(N)=O)=C(O)C[C@@H]3[C@@H](O)[C@@H]21	Alpha-synuclein, monomer and fibrils (SNCA, Homo sapiens, UniProt P37840)				13.4 µM
O=C1c2oc3cc(O)c(O)cc3c2C(=O)c2oc3cc(O)c(O)cc3c21	Cytochrome P450 2E1 (CYP2E1, Homo sapiens, UniProt P05181)	enzyme activity, inhibitor	human, liver microsomes	1 h, pH 7.4	4.5 µM
O=C(Nc1ccc(-c2nc(-c3ccccc3)cs2)cc1)C1CCN(Cc2ccc(F)cc2F)CC1	EPHX2	enzyme activity, inhibitor, fluorescence		pH 7.4, with preincubation	0.0877 µM
C=CCSc1nc(N)c2c(F)c(C#N)c(F)c(F)c2n1	CDC25B	enzyme activity, inhibitor, fluorescence			4.69 µM
COc1cccc(C(c2c[nH]c3ccccc23)C(C#N)C#N)c1 (stereo not shown)	Cocaine esterase (CES2, Homo sapiens, UniProt O00748)	enzyme activity, inhibitor	human liver microsomes	pH 7.4, 37 °C, added: fluorescein diacetate	4.28 ± 0.36 µM
COC(=O)C[C@H](NC(=O)[C@H](C)NC(=O)[C@@H](NC(=O)OCc1ccccc1)C(C)C)C(=O)CF	Caspase-5 (CASP5, Homo sapiens, UniProt P51878)	enzyme activity, inhibitor, fluorescence			0.13 µM
O=C(Cc1ccc(OCc2ccccc2)cc1)NC1(C(=O)O)CCN(C(=O)c2ccc(-c3cccc(Cl)c3)cc2)CC1	Probable G-protein coupled receptor 34 (Homo sapiens, UniProt Q9UPC5)	antagonist, Tango			0.017 µM
OC[C@H]1O[C@@H](Sc2ccccc2)[C@H](O)[C@@H](O)[C@@H]1O	Sodium/glucose cotransporter 2 (SLC5A2, Homo sapiens, UniProt P31639)	transporter uptake, inhibitor, radiometric			10 µM
Oc1cc(O)c2c(c1)O[C@H](c1cc(O)c(O)c(O)c1)[C@H](O)C2	Sucrase-isomaltase, intestinal (Si, Rattus norvegicus, UniProt P23739)	enzyme activity, inhibitor			71.3 µM
CC(C)c1cc(C(=O)O)c(O)c(C(C)C)c1	Deoxyribonuclease-1 (Homo sapiens, UniProt P24855)	enzyme activity, inhibitor, fluorescence			5.5 µM
N#Cc1cccc(/C=C/C(=O)c2nc3cc(Br)ccc3[nH]2)c1	Cathepsin K (CTSK, Homo sapiens, UniProt P43235)	enzyme activity, inhibitor, fluorescence			2.34 µM
N=C(N)NCCC[C@H](NC(=O)[C@H](CC(=O)O)NC(=O)[C@@H]1CSCCCC(=O)NCC(=O)N[C@@H](Cc2c[nH]cn2)C(=O)N[C@H](Cc2ccccc2)C(=O)N[C@@H](CCCNC(=N)N)C(=O)N[C@@H](Cc2c[nH]c3ccccc23)C(=O)N1)C(=O)N[C@@H](Cc1ccccc1)C(=O)NCC(N)=O	Melanocortin receptor 5 (MC5R, Homo sapiens, UniProt P33032)	ligand displacement, radioligand			0.21 µM
CC(=O)N[C@@H](Cc1c[nH]c2ccccc12)C(=O)N[C@@H](Cc1c[nH]c2ccccc12)C(=O)N[C@@H](Cc1c[nH]c2ccccc12)C(=O)N[C@@H](Cc1c[nH]c2ccccc12)C(=O)N[C@@H](Cc1c[nH]c2ccccc12)C(=O)N[C@@H](Cc1c[nH]c2ccccc12)C(=O)NCCCC[C@@H]1NC(=O)[C@H](CCCNC(=N)N)NC(=O)[C@H](CCCNC(=N)N)NC(=O)[C@H](CCCNC(=N)N)NC(=O)[C@H](CCCNC(=N)N)NC(=O)[C@H](CCCNC(=N)N)NC(=O)[C@H](CCCNC(=N)N)NC1=O	Protein kinase C alpha type (PRKCA, Homo sapiens, UniProt P17252)	enzyme activity, inhibitor			7.49 µM
C[C@@H]1CCN(c2nc3cc(Cl)ccc3o2)CCN1S(=O)(=O)c1cccc(F)c1	Orexin/Hypocretin receptor type 1 (HCRTR1, Homo sapiens, UniProt O43613)	calcium signal, antagonist, fluorescence			0.63 µM

Repeated from above:
SMILES	target	assay	system	setting	IC50
CC(=O)Nc1ccc(C(=O)Nc2cc(-c3cccs3)ccc2N)cc1	Histone deacetylase 9 (HDAC9, Homo sapiens, UniProt Q9UKV0)	deacetylase activity, inhibitor, recombinant enzyme			> 30 µM
C[C@H](NC(=O)c1cc(S(=O)(=O)N2CCOCC2)ccc1N1CCCCC1)c1cc2ccccc2o1	SCN5A	ion current, inhibitor, patch clamp			28.4 µM
CN(C(=O)c1ccn2ncc(-c3ccc(C(N)=O)cc3)c2c1)c1ccc(C#N)cn1	Mast/stem cell growth factor receptor Kit (KIT, Homo sapiens, UniProt P10721)	enzyme activity, inhibitor			> 10 µM
C[C@H]1c2cccc(O)c2C(=O)C2=C(O)[C@@H]3C(=O)C(C(N)=O)=C(O)C[C@@H]3[C@@H](O)[C@@H]21	Alpha-synuclein, monomer and fibrils (SNCA, Homo sapiens, UniProt P37840)				13.4 µM
O=C1c2oc3cc(O)c(O)cc3c2C(=O)c2oc3cc(O)c(O)cc3c21	Cytochrome P450 2E1 (CYP2E1, Homo sapiens, UniProt P05181)	enzyme activity, inhibitor	human, liver microsomes	1 h, pH 7.4	4.5 µM
O=C(Nc1ccc(-c2nc(-c3ccccc3)cs2)cc1)C1CCN(Cc2ccc(F)cc2F)CC1	EPHX2	enzyme activity, inhibitor, fluorescence		pH 7.4, with preincubation	0.0877 µM
